Results collected from several papers.
Each line is one published result; not all experiments were run side by side. ± marks the error that the study gave.
ctxB pentamer: ctxB, pentamer (Vibrio cholerae, UniProt P01556)

Compound | target | assay | system | setting | how to read | measurement | result
CSCC[C@H](NC(=O)[C@H](CCN)NC(=O)[C@@H](NC(=O)[C@H](Cc1c[nH]c2ccccc12)NC(=O)[C@H](CCCNC(=N)N)NC(=O)[C@@H](N)CCNc1ccc([N+](=O)[O-])cc1[N+](=O)[O-])[C@@H](C)O)C(=O)N[C@@H](CC(C)C)C(N)=O | Botulinum neurotoxin type F (F, Clostridium botulinum, UniProt A7GBG3) | enzyme activity, inhibitor |  | concentration not given |  | inhibition | 0%
COc1cc([N+](=O)[O-])cc(/C=N/NC(=O)[C@H]2COc3ccccc3O2)c1O | uncharacterized protein (Candidatus Liberibacter solanacearum, UniProt A0A094YYW1) |  |  |  |  | kon | 26.9 M⁻¹ s⁻¹
CC(C)(C)OC(=O)C[C@H](NC(=O)OCc1ccccc1)C(=O)CBr | Replicase polyprotein 1ab, main protease (rep, Severe acute respiratory syndrome-related coronavirus, UniProt P0C6X7) | covalent inhibitor |  |  |  | time constant of irreversible step | > 300 min
CC(=O)N[C@@H](Cc1cn(CCO[C@@H]2O[C@H](CO)[C@H](O)[C@H](O)[C@H]2O)nn1)C(=O)NCC(=O)N[C@@H](C)C(=O)N[C@@H](CCC(=O)O)C(=O)N[C@@H](C)C(=O)N[C@@H](CCC(=O)O)C(=O)N1CCC[C@H]1C(=O)N[C@@H](CCC(=O)O)C(=O)NCC(=O)N[C@@H](C)C(=O)N[C@@H](CCC(=O)O)C(=O)N[C@@H](C)C(=O)N[C@@H](CCC(=O)O)C(=O)N1CCC[C@H]1C(=O)N[C@@H](CCC(=O)O)C(=O)NCC(=O)N[C@@H](C)C(=O)N[C@@H](CCC(=O)O)C(=O)N[C@@H](C)C(=O)N[C@@H](CCC(=O)O)C(=O)N1CCC[C@H]1C(=O)N[C@@H](CCC(=O)O)C(=O)NCC(=O)N[C@@H](C)C(=O)N[C@@H](CCC(=O)O)C(=O)N[C@@H](C)C(=O)N[C@@H](CCC(=O)O)C(=O)N1CCC[C@H]1C(=O)N[C@@H](CCC(=O)O)C(=O)NCC(=O)N[C@@H](C)C(=O)N[C@@H](CCC(=O)O)C(=O)N[C@@H](C)C(=O)N[C@@H](CCC(=O)O)C(=O)N1CCC[C@H]1C(=O)N[C@@H](Cc1cn(CCO[C@@H]2O[C@H](CO)[C@H](O)[C@H](O)[C@H]2O)nn1)C(=O)NCC(=O)NCC(=O)NCC(=O)NCC(N)=O | ctxB pentamer |  |  | concentration not given | baseline: galactose | inhibition potency | 45 fold
CC[C@H](C)[C@@H]1NC(=O)[C@H](CCCNC(=N)N)NC(=O)[C@H](CO)NC(=O)[C@H](CCC(=O)O)NC(=O)[C@H](CC(=O)O)NC(=O)CNC(=O)CNC(=O)[C@H]([C@@H](C)O)NC(=O)[C@H](Cc2ccccc2)NC(=O)[C@H](CO)NC(=O)[C@H]([C@@H](C)O)NC(=O)[C@H](C)NC(=O)[C@@H]2CSSC[C@@H](C(=O)N[C@@H](Cc3ccc(O)cc3)C(=O)N[C@@H](Cc3ccccc3)C(=O)N[C@H](C(=O)N[C@H](C(=O)NCC(=O)O)[C@@H](C)O)[C@@H](C)O)NC(=O)[C@H]([C@@H](C)O)NC(=O)[C@H](CSSC[C@H](NC(=O)[C@H](CCC(=O)O)NC(=O)[C@H](CO)NC(=O)[C@H](CCCCN)NC(=O)[C@H](Cc3ccc(O)cc3)NC(=O)[C@@H]3CCCN3C(=O)[C@H](Cc3ccccc3)NC(=O)[C@H](CCCCN)NC(=O)[C@H](CCCNC(=N)N)NC(=O)[C@H](CCCCN)NC(=O)[C@H](CCCCN)NC(=O)[C@H](Cc3ccc(O)cc3)NC(=O)[C@@H]3CCCN3C(=O)[C@@H](NC(=O)[C@H](CC(=O)O)NC(=O)[C@H](CCCCN)NC(=O)[C@H](CCCCN)NC(=O)[C@@H](NC(=O)[C@@H](NC(=O)[C@@H](N)CCC(=O)O)C(C)C)[C@@H](C)CC)[C@@H](C)O)C(=O)N[C@@H](CC(C)C)C(=O)N[C@@H](CCCCN)C(=O)N[C@@H](C)C(=O)N2)NC(=O)[C@H](CCCCN)NC(=O)[C@H](Cc2ccccc2)NC(=O)[C@H](Cc2ccccc2)NC(=O)CNC(=O)[C@@H]2CCCN2C(=O)[C@H](CCCCN)NC(=O)CNC(=O)[C@H](CCC(=O)O)NC(=O)[C@H](CCC(N)=O)NC1=O | Potassium voltage-gated channel subfamily KQT member 2 (KCNQ2, Homo sapiens, UniProt O43526) | potassium current, whole-cell patch clamp | HEK-293T |  |  | Hill slope | 0.99 ± 0.06
CCC[C@H](NC(=O)[C@H](CC(C)C)NC(=O)OCc1ccccc1)C(=O)C(=O)NCc1ccccn1 | Replicase polyprotein 1ab, main protease (rep, Middle East respiratory syndrome-related coronavirus, UniProt K9N7C7) | thermal stability |  |  |  | ΔTm | 0.81 °C
O=C(C=Cc1ccc(O)c(O)c1)OC1CC(O)(C(=O)O)CC(OC(=O)C=Cc2ccc(O)c(O)c2)C1O (stereo not shown) | Spike glycoprotein (Severe acute respiratory syndrome coronavirus 2, UniProt P0DTC2) | binding, BLI |  |  |  | kon | 2510 M⁻¹ s⁻¹
CC(=O)N[C@@H](Cc1cn(CCO[C@@H]2O[C@H](CO)[C@H](O)[C@H](O)[C@H]2O)nn1)C(N)=O | ctxB pentamer |  |  | concentration not given | baseline: galactose | inhibition potency | 10 fold
O=[N+]([O-])c1cccc(O[C@H]2O[C@H](CO)[C@H](O)[C@H](O)[C@H]2O)c1 | ctxB (Vibrio cholerae, UniProt P01556) | binding |  |  |  | log IC50 | -2.72
CC(=O)N[C@H]1[C@@H](OC[C@H](NC(=O)[C@H](C)NC(=O)[C@H](C)N)C(=O)N[C@H](C(=O)N[C@H](C(=O)N[C@H](C(=O)N2CCC[C@H]2C(=O)N[C@@H](C)C(=O)N2CCC[C@H]2C(=O)N[C@@H](C)C(N)=O)[C@@H](C)O[C@H]2O[C@H](CO)[C@H](O)[C@H](O[C@@H]3O[C@H](CO)[C@H](O)[C@H](O)[C@H]3O)[C@H]2NC(C)=O)[C@@H](C)O[C@H]2O[C@H](CO)[C@H](O)[C@H](O[C@@H]3O[C@H](CO)[C@H](O)[C@H](O)[C@H]3O)[C@H]2NC(C)=O)[C@@H](C)O[C@H]2O[C@H](CO)[C@H](O)[C@H](O[C@@H]3O[C@H](CO)[C@H](O)[C@H](O)[C@H]3O)[C@H]2NC(C)=O)O[C@H](CO)[C@H](O)[C@@H]1O[C@@H]1O[C@H](CO)[C@H](O)[C@H](O)[C@H]1O | Metalloprotease StcE (stcE, Escherichia coli O157:H7, UniProt O82882) | binding | Escherichia coli, EHEC | pH 7.5 |  | kon | 2.38e+06 M⁻¹ s⁻¹
CS(=O)(=O)NCC1CCOC2(CCN(C(=O)C3(c4ccccc4)CCC3)CC2)C1 (stereo not shown) | Polyprotein P1234, nsP2 (Chikungunya virus, UniProt Q8JUX6) | nsP2 ATPase activity, inhibitor, ADP-Glo |  | high micromolar |  | nsP2 ATPase inhibition | inactive
CC[C@H](C)[C@H](NC(=O)[C@H](CC(C)C)NC(=O)[C@H](Cc1ccc(OP(=O)(O)O)cc1)NC(=O)[C@H](CCC(=O)O)NC(=O)[C@H](CC(=O)O)NC(=O)[C@H](C)NC(=O)[C@H](CC(=O)O)NC(=O)[C@@H](NC(=O)[C@H](CC(C)C)NC(=O)CCCC[C@@H]1SC[C@@H]2NC(=O)N[C@@H]21)C(C)C)C(=O)N1CCC[C@H]1C(=O)N[C@@H](CCC(N)=O)C(=O)N[C@@H](CCC(N)=O)C(=O)NCC(=O)O | Secreted effector protein (Yersinia pestis, UniProt O68720) | binding |  |  |  | kon | 34.9 M⁻¹ s⁻¹
CC(C)C[C@@H]1NC(=O)[C@H](CCCNC(=N)N)NC(=O)[C@@H]2CCCN2C(=O)[C@@H]2CSSC[C@H](NC(=O)CNC(=O)[C@@H]3CCCN3C(=O)[C@H](CCCCN)NC(=O)[C@H](CC(=O)O)NC(=O)[C@@H](NC(=O)CN)C(C)C)C(=O)N[C@@H](CCCNC(=N)N)C(=O)N[C@@H](Cc3ccc(O)cc3)C(=O)N[C@@H](CC(C)C)C(=O)N[C@@H](Cc3ccccc3)C(=O)NCC(=O)NCC(=O)N[C@H]3CSSC[C@H](NC(=O)CNC1=O)C(=O)N[C@@H](CCCCN)C(=O)NCC(=O)N[C@@H](CCCCN)C(=O)NCC(=O)N[C@@H](Cc1c[nH]cn1)C(=O)N[C@@H](CC(=O)O)C(=O)N[C@@H](Cc1ccc(O)cc1)C(=O)N[C@H](C(=O)N[C@@H](C)C(=O)N[C@@H](Cc1c[nH]c4ccccc14)C(=O)N[C@@H](CC(=O)O)C(=O)NCC(=O)N[C@H](C(=O)N[C@@H](Cc1ccccc1)C(=O)N[C@@H](CO)C(=O)N[C@@H](CC(=O)O)C(=O)O)[C@@H](C)O)CSSC[C@H](NC(=O)[C@H](CC(=O)O)NC(=O)[C@H](CC(=O)O)NC(=O)[C@H](CC(=O)O)NC(=O)[C@H](CO)NC(=O)[C@H](CCCCN)NC3=O)C(=O)N2 | Sodium channel protein type 5 subunit alpha (SCN5A, Homo sapiens, UniProt Q14524) | sodium current, automated patch clamp | HEK293 | 1 µM, 50 ms depolarizing pulse | baseline: compound over control | inactivation time constant ratio | 1.22 ± 0.04
